{"data": "Literature values as cited in several papers", "note": "Numbered parts are unrelated; values within a part may stem from several laboratories. ± marks the error that the study gave."}
{"data": "Series 1", "target": "HLA class I histocompatibility antigen, A alpha chain, allele A*69:01 (Homo sapiens, UniProt P04439)", "effect on": "peptide-MHC binding", "form": "peptide"}
{"Sequence": "DAAAPLPPV", "IC50 [nM]": 1}
{"Sequence": "DAAVVFPPV", "IC50 [nM]": 1}
{"Sequence": "FLGKIWSS", "IC50 [nM]": "> 5000"}
{"data": "Further values, each from its own experiment"}
{"SMILES": "CCOC(=O)N1c2ccc(C(F)(F)F)cc2[C@@H](N(Cc2cc(C(F)(F)F)cc(C(F)(F)F)c2)c2ncc(OCCCC(=O)O)cn2)C[C@H]1CC", "system": "human", "conditions": "daily dosing", "endpoint": "time to steady state", "value": "1 to 2 weeks"}
{"SMILES": "COC(=O)[C@@H]1C[C@H](OC(C)=O)C(=O)[C@H]2[C@@]1(C)CC[C@H]1C(=O)O[C@H](c3ccoc3)C[C@]21C", "tested on": "kappa opioid receptor Y139A", "endpoint": "Ki", "value": "53.9 ± 13.9 nM"}
{"SMILES": "CC1(C(=O)O)C2CCC(O2)C1(C)C(=O)O (centres unmarked)", "tested on": "PP1 and PP2A", "test": "phosphatase activity, inhibitor", "endpoint": "IC50", "value": "53 nM"}
{"SMILES": "O=C1N[C@@H]2CCCC[C@H]2N[C@@H]1c1c[nH]c2ncccc12", "tested on": "COLO 320 ABCB1-resistant colon", "test": "cytotoxicity", "endpoint": "IC50", "value": "> 100000 nM"}
{"SMILES": "CC(O)CN1CCN(CC(=O)[O-])CCN(CC(=O)[O-])CCN(CC(=O)[O-])CC1.[Gd+3] (centres unmarked)", "system": "human plasma", "conditions": "310 K, 3 T", "endpoint": "relaxivity r1", "value": "3.7 mM⁻¹ s⁻¹"}
{"note": "Repeated from above (further values, each from its own experiment):"}
{"SMILES": "CC1(C(=O)O)C2CCC(O2)C1(C)C(=O)O (centres unmarked)", "tested on": "PP1 and PP2A", "test": "phosphatase activity, inhibitor", "endpoint": "IC50", "value": "53 nM"}
